Measured values pooled from the literature.
Lines come from different studies, so protocols differ. ± marks the error that the study gave.

SMILES | tested on | test | test system | setting | how to read | measurement | value
CC(=O)Oc1cc2c(s1)CCN(C(C(=O)C1CC1)c1ccccc1F)C2 (centres unmarked) |  | platelet aggregation, light transmission aggregometry | human patients, platelet-rich plasma | 3 h, together with: TRAP 5 µM |  | patients with IPA above 90% | 9.5%
O=C(O)CNC(=O)Cc1ccccc1 |  |  | ventricular cardiomyocytes, C57BL/6 mouse | dose not given, 0.86 s |  | sarcomere length | 1.62 µm
CO[C@H]1CC[C@H](N2C(=O)CNc3ncc(-c4ccc(C(C)(C)O)nc4)nc32)CC1 |  | flow cytometry | stimulated B cells, human, blood | 45 mg single dose, 24 h, mean | baseline: baseline | pS6RP change from baseline | -30%
Cn1cc(Nc2nccc(-c3ccc4c(c3)CN(C3COC3)CC[C@H]4NC(=O)c3cn(C(C)(C)C)nn3)n2)cn1 |  | refers to: folate transformations I | splenic B cells, mice | 30 mg/kg, IgD-activated in vivo | baseline: vehicle, direction not given | pathway activation z-score | -2.24
Cc1cnc(N2CC3(CCOCC3)C2)c(C(=O)Nc2ccc(C(=O)N3CCc4cc(C(=O)Nc5c(C)cccc5F)sc4-c4ccccc43)cc2)c1 |  |  | human, RSV infection, nasal wash | dose not given, ITT-I population | baseline: placebo | inhibition of MCP3 AUC | 11%
C[C@H](Oc1ccc(Br)cc1-c1ccon1)C(=O)O |  | muscle velocity recovery cycles | human, tibialis anterior muscle | 400 mg twice daily | baseline: placebo | mean CMAP amplitude difference | -0.1 mV
Cc1n[nH]c2ccc(-c3cc(OC[C@@H](N)Cc4ccccc4)cnc3-c3ccoc3)cc12 |  | kinase binding, competitor, MIB/MS competition, refers to: SCH9 | Candida albicans cell lysate | 1 µM | baseline: DMSO | log2 fold change | -0.178
C[C@H]1C[C@H]2CSC(N)=N[C@@]2(c2nc(NC(=O)c3ccc(OC(F)F)cn3)cs2)CO1 |  | refers to: Aβx-40 | healthy adults, plasma | 12 mg single dose, 8 h post-dose | baseline: placebo | percent change from baseline | -53.3%
Cn1cc(-c2ccc(-c3cncc(Cl)c3N3CCC4(CCNC4=O)CC3)cc2)cn1 | COLO 205 | gene expression, microarray, refers to: TNFSF10 mRNA |  | concentration not given, 6 h | baseline: untreated cells | log2 fold change | 2.19
CC(C)NCC(O)c1ccc(O)c(O)c1 (centres unmarked) |  |  | ventricular cardiomyocytes, C57BL/6 mouse | dose not given, 0.328 s |  | sarcomere length | 1.72 µm
NC(=O)c1cnc2[nH]ccc2c1N[C@@H]1[C@@H]2CC3C[C@H]1C[C@@](O)(C3)C2 |  | CD4+ effector T cells, flow cytometry | Caucasian humans, peripheral blood | 20 mg single dose | baseline: baseline | percent change | 0%
N#Cc1ccc2c(-c3ccncc3)c(-c3ccc(F)cc3)nn2c1 |  | kinase binding, competitor, MIB/MS competition, refers to: TPK2 | Candida albicans cell lysate | 100 nM | baseline: DMSO | log2 fold change | 0.0438
OC(CCN1CCCCC1)(c1ccccc1)C1CC2C=CC1C2 (centres unmarked) |  | resting-state EEG | healthy elderly humans | oral, 4 mg, eyes closed, LS mean | baseline: baseline | change in EEG Alpha2-power Pz-O2 | 31.9%
C=CCn1c(=O)c2cnc(Nc3ccc(N4CCN(C)CC4)cc3)nc2n1-c1ccc2c(n1)[C@@](O)(CC)CC2 |  |  | LS-513 xenograft, BALB/c nude mice | oral, 60 mg/kg once daily x 21, day 23 |  | tumour volume difference | 1460 ± 147 mm3
O=c1c(NCCc2cccc(Cl)c2)c(Nc2ccc(Cl)cc2)c1=O |  | cue-induced reinstatement after extinction | rat, cocaine self-administration | i.p., 5.6 mg/kg |  | inactive lever presses | no effect
O=C(/C=C/c1ccc(O)c(O)c1)OCCc1ccccc1 | Toxoplasma gondii | parasite growth | HFF, bradyzoite, alkaline-induced |  |  | EC90 | 42.6 µM
CC(C)c1c(C(=O)Nc2ccccc2)c(-c2ccccc2)c(-c2ccc(F)cc2)n1CC[C@@H](O)C[C@@H](O)CC(=O)O |  | refers to: triglycerides, HDL-C, LDL-C, total cholesterol | cynomolgus monkeys | dose not given, day 86, compound given alone |  | serum lipid change | no effect
COc1ccc(-c2cncc(N[C@@H](C)c3cccc(NC(=O)c4cncc(C)c4)c3)n2)cc1OC |  | refers to: rno-miR-17-5p | rat SU5416/hypoxia model, lung | dose not given | baseline: SU5416/hypoxia vehicle | fold change | 1.68
CCCCCN1C[C@H](O)[C@@H](O)[C@H](O)[C@@H]1CO |  |  | mouse Hexb-/-, liver | 300 mg/kg/day | baseline: untreated Hexb-/- mice | number of decreased sphingolipids | 35
COc1ccccc1[C@H](Cn1c(=O)n(C(C)(C)C(=O)O)c(=O)c2c(C)c(-c3ncco3)sc21)OC1CCOCC1 |  | [1-13C]acetate infusion, isotopomer analysis | overweight or obese healthy men, plasma VLDL-TG palmitate | oral, 20 mg single dose, -1 h relative to dose, fasted baseline |  | fractional hepatic DNL | 6.89 % new palmitate
N#Cc1ccc2c(c1)[C@H]1CCCN(C(=O)c3ccc4[nH]cnc4c3)[C@H]1C2 |  | refers to: body weight | human | 20 mg once daily, day 28, adjusted mean | baseline: placebo | change from baseline | -0.24 kg
c1ccc(-c2n[nH]cc2-c2ccnc3ccccc23)nc1 |  | kinase binding, competitor, MIB/MS competition, refers to: SAK1 | Candida albicans cell lysate | 10 µM | baseline: DMSO | log2 fold change | 1.24
CC1(C)CCC2=C(O1)c1ccccc1C(=O)C2=O | Toxoplasma gondii | parasite growth | HFF, bradyzoite, alkaline-induced |  |  | EC90 | 4820 µM

Repeated from above:
SMILES | tested on | test | test system | setting | how to read | measurement | value
Cn1cc(-c2ccc(-c3cncc(Cl)c3N3CCC4(CCNC4=O)CC3)cc2)cn1 | COLO 205 | gene expression, microarray, refers to: TNFSF10 mRNA |  | concentration not given, 6 h | baseline: untreated cells | log2 fold change | 2.19
CC(C)NCC(O)c1ccc(O)c(O)c1 (centres unmarked) |  |  | ventricular cardiomyocytes, C57BL/6 mouse | dose not given, 0.328 s |  | sarcomere length | 1.72 µm
NC(=O)c1cnc2[nH]ccc2c1N[C@@H]1[C@@H]2CC3C[C@H]1C[C@@](O)(C3)C2 |  | CD4+ effector T cells, flow cytometry | Caucasian humans, peripheral blood | 20 mg single dose | baseline: baseline | percent change | 0%
